# Assay results gathered from unrelated publications.
# Compare with care: the assays were run in different laboratories. Values joined by “and” are separate records of one study, mostly repeats; a detail may differ. ± gives the spread as reported.
# cyp121: Mycocyclosin synthase (cyp121, Mycobacterium tuberculosis, UniProt P9WPP7)
# UniProt P9WPP7, sequence (whole entry, looked up): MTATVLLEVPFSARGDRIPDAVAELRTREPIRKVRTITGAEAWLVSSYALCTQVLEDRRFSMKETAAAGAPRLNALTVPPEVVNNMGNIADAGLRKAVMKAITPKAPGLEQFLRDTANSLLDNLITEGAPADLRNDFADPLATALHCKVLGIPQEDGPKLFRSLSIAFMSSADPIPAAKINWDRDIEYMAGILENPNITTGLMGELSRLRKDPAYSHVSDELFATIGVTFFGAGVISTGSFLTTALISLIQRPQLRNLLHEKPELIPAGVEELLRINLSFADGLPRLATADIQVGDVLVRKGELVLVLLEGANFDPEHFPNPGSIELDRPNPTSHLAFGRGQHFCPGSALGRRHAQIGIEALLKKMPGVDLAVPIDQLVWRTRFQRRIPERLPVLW
# OPRK1: Kappa-type opioid receptor (OPRK1, Homo sapiens, UniProt P41145)
# UniProt P41145, sequence (whole entry, looked up): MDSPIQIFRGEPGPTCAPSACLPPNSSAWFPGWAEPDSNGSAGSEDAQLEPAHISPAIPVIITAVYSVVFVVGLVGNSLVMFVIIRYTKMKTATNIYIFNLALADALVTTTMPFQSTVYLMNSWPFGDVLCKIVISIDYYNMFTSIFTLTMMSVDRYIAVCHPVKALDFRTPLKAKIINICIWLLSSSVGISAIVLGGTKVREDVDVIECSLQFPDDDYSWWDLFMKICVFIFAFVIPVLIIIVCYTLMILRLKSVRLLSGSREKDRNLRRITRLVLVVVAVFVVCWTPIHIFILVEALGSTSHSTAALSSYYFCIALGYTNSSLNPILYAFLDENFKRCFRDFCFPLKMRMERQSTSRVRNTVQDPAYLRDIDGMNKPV
# VP30: Transcriptional activator VP30 (VP30, Zaire ebolavirus, UniProt Q05323)
# UniProt Q05323, sequence (whole entry, looked up): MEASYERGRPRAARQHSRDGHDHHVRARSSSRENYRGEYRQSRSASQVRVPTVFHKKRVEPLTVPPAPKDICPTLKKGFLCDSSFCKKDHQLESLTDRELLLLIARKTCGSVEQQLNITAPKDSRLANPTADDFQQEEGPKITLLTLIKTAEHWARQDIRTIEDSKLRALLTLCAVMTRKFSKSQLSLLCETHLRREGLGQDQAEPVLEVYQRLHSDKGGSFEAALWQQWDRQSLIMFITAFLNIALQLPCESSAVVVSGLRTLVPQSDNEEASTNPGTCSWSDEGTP
# pfo: pfo (Clostridium perfringens, UniProt P0C2E9)
# UniProt P0C2E9, sequence (whole entry, looked up): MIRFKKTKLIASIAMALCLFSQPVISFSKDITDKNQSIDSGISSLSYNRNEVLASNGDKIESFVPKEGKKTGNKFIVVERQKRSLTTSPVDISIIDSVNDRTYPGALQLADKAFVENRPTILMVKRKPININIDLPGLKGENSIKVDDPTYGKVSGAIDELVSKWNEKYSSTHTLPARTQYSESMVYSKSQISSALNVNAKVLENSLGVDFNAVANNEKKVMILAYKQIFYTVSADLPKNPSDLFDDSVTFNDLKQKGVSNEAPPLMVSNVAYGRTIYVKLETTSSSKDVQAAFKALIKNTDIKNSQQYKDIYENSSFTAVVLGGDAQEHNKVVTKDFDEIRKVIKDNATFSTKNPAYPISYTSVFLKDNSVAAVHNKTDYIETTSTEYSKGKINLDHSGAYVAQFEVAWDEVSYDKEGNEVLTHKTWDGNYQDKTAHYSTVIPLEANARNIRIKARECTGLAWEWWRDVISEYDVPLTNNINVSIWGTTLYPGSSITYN
# Secreted effector protein N-terminal domain: Secreted effector protein, N-terminal domain (Yersinia pestis, UniProt O68720)
# UniProt P35372, sequence (whole entry, looked up): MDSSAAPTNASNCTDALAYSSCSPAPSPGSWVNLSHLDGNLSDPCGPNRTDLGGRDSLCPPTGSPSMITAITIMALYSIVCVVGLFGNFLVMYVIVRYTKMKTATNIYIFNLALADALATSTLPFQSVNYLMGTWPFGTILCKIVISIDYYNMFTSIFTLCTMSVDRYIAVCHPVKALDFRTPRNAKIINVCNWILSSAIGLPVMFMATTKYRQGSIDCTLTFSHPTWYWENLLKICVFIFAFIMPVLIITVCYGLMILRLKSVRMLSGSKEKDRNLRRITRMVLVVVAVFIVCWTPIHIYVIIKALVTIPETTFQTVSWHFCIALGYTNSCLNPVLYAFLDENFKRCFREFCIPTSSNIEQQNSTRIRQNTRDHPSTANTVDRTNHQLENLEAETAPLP
# UniProt P9WPC9, sequence (whole entry, looked up): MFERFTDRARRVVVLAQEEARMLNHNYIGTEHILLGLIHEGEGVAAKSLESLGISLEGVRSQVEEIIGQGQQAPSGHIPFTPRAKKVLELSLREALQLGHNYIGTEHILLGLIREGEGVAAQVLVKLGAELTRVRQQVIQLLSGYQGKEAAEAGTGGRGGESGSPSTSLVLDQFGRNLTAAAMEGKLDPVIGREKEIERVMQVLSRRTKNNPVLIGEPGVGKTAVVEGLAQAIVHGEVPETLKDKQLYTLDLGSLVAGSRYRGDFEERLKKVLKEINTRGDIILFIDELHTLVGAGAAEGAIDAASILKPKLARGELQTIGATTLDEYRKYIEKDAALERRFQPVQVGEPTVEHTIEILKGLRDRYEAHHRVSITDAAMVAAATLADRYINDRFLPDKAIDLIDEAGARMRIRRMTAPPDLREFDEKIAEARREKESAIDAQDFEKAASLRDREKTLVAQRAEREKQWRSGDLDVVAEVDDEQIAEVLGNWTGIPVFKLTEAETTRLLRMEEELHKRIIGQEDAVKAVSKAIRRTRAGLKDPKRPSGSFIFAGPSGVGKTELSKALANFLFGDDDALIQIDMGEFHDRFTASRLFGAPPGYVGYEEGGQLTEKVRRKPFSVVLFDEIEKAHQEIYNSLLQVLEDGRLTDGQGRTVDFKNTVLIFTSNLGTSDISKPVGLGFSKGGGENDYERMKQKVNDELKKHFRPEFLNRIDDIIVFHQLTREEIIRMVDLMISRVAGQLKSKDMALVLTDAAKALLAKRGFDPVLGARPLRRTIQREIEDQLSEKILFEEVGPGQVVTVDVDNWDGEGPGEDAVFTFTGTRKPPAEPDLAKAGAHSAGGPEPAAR
SMILES,target or system,assay,test system,conditions,endpoint,value
C=CC(c1ccc(-c2ccc(OC)c(F)c2)cc1)n1ccnc1 (stereo not drawn),cyp121,binding,,,Kd,7.1 ± 0.7 µM
CCCCCCCCCCCCCCCC(=O)N[C@@H](CCC(=O)NCCOCCOCCC(=O)NCCOCCOCCC(=O)NCCCC[C@H](NC(=O)[C@H](CC(=O)O)NC(=O)[C@H](CC(C)C)NC(=O)[C@H](Cc1ccc(O)cc1)NC(=O)[C@H](CCCCN)NC(=O)[C@H](CO)NC(=O)[C@H](Cc1ccc(O)cc1)NC(=O)[C@H](CC(=O)O)NC(=O)[C@H](CO)NC(=O)[C@@H](NC(=O)[C@H](Cc1ccccc1)NC(=O)[C@@H](NC(=O)CNC(=O)[C@H](CCC(N)=O)NC(=O)[C@@H](CO)NC(=O)[C@@H](N)Cc1c[nH]cn1)[C@@H](C)O)[C@@H](C)O)C(=O)N[C@@H](CCCNC(=N)N)C(=O)N[C@@H](CCCNC(=N)N)C(=O)N[C@@H](C)C(=O)N[C@@H](CCC(N)=O)C(=O)N[C@@H](CC(=O)O)C(=O)N[C@@H](Cc1ccccc1)C(=O)N[C@H](C(=O)N[C@@H](CCC(N)=O)C(=O)N[C@@H](Cc1c[nH]c2ccccc12)C(=O)N[C@@H](CC(C)C)C(=O)N[C@@H](CC(C)C)C(=O)N[C@@H](CC(N)=O)C(=O)N[C@H](C(=O)NCC(=O)NCC(=O)N1CCC[C@H]1C(=O)N[C@@H](CO)C(=O)N[C@@H](CO)C(=O)NCC(=O)N[C@@H](C)C(=O)N1CCC[C@H]1C(=O)N1CCC[C@H]1C(=O)N1CCC[C@H]1C(=O)N[C@@H](CO)C(N)=O)[C@@H](C)O)C(C)C)C(=O)O,,,"Sprague-Dawley rat, female","subcutaneous, 500 µg/kg once daily, 14 days",urea,3.73 ± 0.95 mmol/L
Fc1ccc(-c2ccc(Cn3ccnc3)c(F)c2)c(F)c1,cyp121,binding,,,Kd,12.6 ± 2 µM
CC(C)C[C@H](NC(=O)[C@H](CO)NC(=O)[C@H](CCCCN)NC(=O)[C@H](CC(C)C)NC(=O)C(C)(C)NC(=O)[C@H](CCCCN)NC(=O)[C@H](CCC(=O)O)NC(=O)[C@H](C)NC(=O)[C@H](CC(C)C)NC(=O)[C@H](CC(N)=O)NC(=O)[C@@H]1CCCN1C(=O)[C@H](CC(C)C)NC(=O)[C@H](Cc1ccccc1)NC(=O)CNC(=O)[C@H](NC(=O)[C@@H](N)Cc1ccc(O)cc1)[C@H](C)O)C(N)=O,OPRK1,"ligand displacement, radioligand",,"pH 7.5, cell membranes",Ki,16 nM
CC(C)=CCCC(C)(OC1OC(COC2OC(CO)C(O)C2OC2OCC(O)C(O)C2O)C(O)C(O)C1O)C1CCC2(C)C1C(O)CC1C3(C)CCC(OC4OC(CO)C(O)C(O)C4OC4OC(CO)C(O)C(O)C4O)C(C)(C)C3CCC12C (stereo not drawn),"Spike glycoprotein, S1 subunit (MERS-CoV, UniProt K9N5Q8)",binding,,,Kd,0.67 µM
Cc1cc(O)cc(C)c1C[C@H](N)C(=O)NCC(=O)NCC(=O)N[C@@H](Cc1ccccc1)C(=O)N[C@H](C(=O)NCC(=O)N[C@@H](C)C(=O)N[C@@H](CCCNC(=N)N)C(=O)N[C@@H](CCCCN)C(=O)N[C@@H](CO)C(=O)N[C@@H](C)C(=O)N[C@@H](CCCNC(=N)N)C(=O)N[C@@H](CCCCN)C(N)=O)[C@@H](C)O,"OPRM1 (Homo sapiens, UniProt P35372)","ligand displacement, radioligand",,cell membranes,Ki,0.0912 nM
CCCCCCCC(O)CC(=O)CCc1ccc(O)c(OC)c1 (stereo not drawn),VP30,,Ebola virus,,Kd,17.9 µM
CC(=O)NC1C(O)OC(CO)C(O)C1OC1OC(CO)C(O)C(O)C1O (stereo not drawn),pfo,binding,,,Kd,46 µM
Cc1ccc(N2CC3CC(C2)N3C)cc1C(=O)NC1(c2ccc3c4c(cccc24)C(=O)N3C)CC1,"Replicase polyprotein 1a, papain-like protease (Severe acute respiratory syndrome coronavirus 2, UniProt P0DTC1)","binding, ITC",,,Kd,0.0246 µM
CC(=O)N[C@@H](CC(=O)O)C(=O)N[C@@H](CCC(=O)O)C(=O)N[C@@H](Cc1ccc(OP(=O)(O)O)cc1)C(=O)N[C@H](C(=O)N[C@@H](CC(=O)O)C(=O)N1CCC[C@H]1C(=O)N[C@@H](Cc1ccccc1)C(N)=O)C1CCCC1,Secreted effector protein N-terminal domain,biochemical,,,Kd,0.18 µM
Fc1ccc(F)c(-c2ccc(Cn3ccnc3)c(F)c2)c1,cyp121,binding,,,Kd,9.2 ± 2 µM
CC[C@@H](C)[C@@H](NC(=O)[C@@H](CCCCN)NC(=O)[C@@H](CCCCN)NC(=O)[C@@H](CC(C)C)NC(=O)[C@@H](Cc1c[nH]c2ccccc12)NC(=O)CN)C(=O)NCC(=O)N[C@H](CCCCN)C(=O)N[C@H](CCCCN)C(=O)N[C@@H](C(=O)N[C@H](CCC(=O)O)C(=O)N[C@H](CCCNC(=N)N)C(=O)N[C@@H](C(=O)NCC(=O)N[C@H](CCC(N)=O)C(=O)N[C@H](Cc1c[nH]cn1)C(=O)N[C@@H](C(=O)N[C@H](CCCNC(=N)N)C(=O)N[C@H](CC(=O)O)C(=O)N[C@H](C)C(=O)N[C@@H](C(=O)N[C@@H](C(=O)N[C@H](CCC(N)=O)C(=O)N[C@@H](C(=O)N[C@@H](C(=O)NCC(=O)N[C@@H](C(=O)N[C@H](C)C(=O)N[C@H](CCC(N)=O)C(=O)N[C@H](CCC(N)=O)C(=O)N[C@H](C)C(=O)N[C@H](C)C(=O)N[C@H](CC(N)=O)C(=O)N[C@@H](C(=O)N[C@H](C)C(=O)N[C@H](C)C(=O)N[C@@H](C(=O)N[C@H](CC(C)C)C(=O)N[C@H](CCCCN)C(N)=O)[C@H](C)O)C(C)C)C(C)C)[C@H](C)CC)[C@H](C)O)[C@H](C)CC)[C@H](C)O)[C@H](C)O)C(C)C)[C@H](C)CC,HepG2,"cytotoxicity, item: intracellular ATP",,,no-observed-effect concentration,420 mg/L
CC[C@H](C)[C@H](NC(=O)[C@H](CC(N)=O)NC(=O)[C@H](CCCNC(=N)N)NC(=O)[C@H](CCCNC(=N)N)NC(=O)CNC(=O)[C@@H](NC(=O)[C@H](CC(C)C)NC(=O)[C@H](CCC(N)=O)NC(=O)[C@@H]1CC(=O)NCC(=O)N[C@@H](CC(C)C)C(=O)N[C@@H](CCCNC(=N)N)C(=O)N[C@@H](CCCNC(=N)N)C(=O)N[C@@H](CC(C)C)C(=O)N[C@@H](Cc2ccccc2)C(=O)N[C@@H](C)C(=O)N1)C(C)C)C(=O)OC,"clpC1 (Mycobacterium tuberculosis, UniProt P9WPC9)",biochemical,,pH 7.8,Kd,0.41 µM
COc1ccc(/C=N/NC(=O)C(C)(C)Oc2ccc(Cl)cc2)c(C(=O)O)c1OC,"uncharacterized protein (Candidatus Liberibacter solanacearum, UniProt A0A094YYW1)",,,,Kd,13.8 µM
CC(C)C[C@H](NC(=O)[C@H](CO[C@@H]1O[C@H](CO)[C@@H](O)[C@H](O)[C@H]1O)NC(=O)[C@H](CCCCN)NC(=O)[C@H](CC(C)C)NC(=O)[C@H](C)NC(=O)[C@H](CCCCN)NC(=O)[C@H](CCC(=O)O)NC(=O)CNC(=O)[C@H](CC(C)C)NC(=O)[C@H](CC(N)=O)NC(=O)[C@@H]1CCCN1C(=O)[C@H](CC(C)C)NC(=O)[C@H](Cc1ccccc1)NC(=O)CNC(=O)[C@H](NC(=O)[C@@H](N)Cc1ccc(O)cc1)[C@H](C)O)C(N)=O,OPRK1,"ligand displacement, radioligand",,"pH 7.5, cell membranes",Ki,11 nM
COc1ccc(-c2ccc3c(c2)CCC3n2ccnc2)cc1 (stereo not drawn),cyp121,binding,,,Kd,4.7 ± 0.8 µM
CC(=O)NC1C(OC2C(O)C(CO)OC(O)C2OC2OC(C)C(O)C(O)C2O)OC(CO)C(O)C1O (stereo not drawn),pfo,binding,,,Kd,5.1 µM and 5.11 µM
CC(=O)N[C@@H](Cc1ccccc1)C(=O)N[C@@H](Cc1ccc(OP(=O)(O)O)cc1)C(=O)N[C@H](C(=O)N[C@@H](Cc1c[nH]c2ccccc12)C(=O)N1CCC[C@H]1C(N)=O)C1CCCC1,Secreted effector protein N-terminal domain,biochemical,,,Kd,3.1 µM
Cc1ccc(NC(=S)NNc2c([N+](=O)[O-])cc(C(F)(F)F)cc2[N+](=O)[O-])cc1Cl,VP30,,Ebola virus,,Kd,65.6 µM
CC[C@H](C)[C@H](NC(=O)[C@H](CC(C)C)NC(=O)[C@@H](N)Cc1ccc(O)cc1)C(=O)N[C@H]1CSc2ccc(cc2)SC[C@@H](C(=O)NCC(=O)N[C@@H](Cc2ccccc2)C(=O)N[C@@H](CC(C)C)C(=O)N[C@@H](CCCCN)C(=O)N[C@@H](CCCCN)C(=O)N[C@@H](CCCCN)C(=O)N[C@@H](CCCCNC(=O)CCCC[C@@H]2SC[C@@H]3NC(=O)N[C@@H]32)C(N)=O)NC(=O)[C@H](CC(=O)O)NC(=O)[C@H]([C@@H](C)O)NC(=O)[C@H](Cc2ccc(O)cc2)NC1=O,"Gag polyprotein, capsid C-terminal domain (gag, UniProt P12493)","binding, biolayer interferometry",PBS,"pH 7.4, 30 °C, biotinylated peptide immobilised, together with: C-CA 5 to 100 µM",Kd,> 100 µM
CSc1ccc(-c2ccc(Cn3ccnc3)cc2)s1,cyp121,binding,,,Kd,6.6 ± 1 µM
Cc1cc(/C=C/C#N)cc(C)c1Nc1nc(Nc2ccc(C#N)cc2)ncc1N,HIV-1,"viral replication, single-round infection",RT mutant M184I,,EC50,0.00012 ± 3e-05 µM
CC(=O)N[C@@H](CCCCN)C(=O)N[C@@H](Cc1ccc(OP(=O)(O)O)cc1)C(=O)N[C@H](C(=O)N[C@@H](CC(=O)O)C(N)=O)C1CCCC1,Secreted effector protein N-terminal domain,biochemical,,,Kd,128 µM
O=C(NCCOC(=O)[C@@H]1CCCCN1S(=O)(=O)Cc1ccccc1)c1cccnc1,"Peptidyl-prolyl cis-trans isomerase (Burkholderia pseudomallei, UniProt Q63J95)",,,,Kd,10.6 ± 0.2 µM
